# Results gathered from unrelated publications.
# Numbered parts are unrelated; each lists some results of a single study. Changes are numbered by the printed parent chain.

# Block 1 — target: CCNA2, cyclin fold, Cln2 fusion (human); method: yeast growth competition, sequencing; matrix: yeast; setting: strong parent motif; relative to: not given; reading: higher = stronger binding
# Starting sequence: SAMHD1 docking peptide (human); ASKSRVQLFKDDP; partner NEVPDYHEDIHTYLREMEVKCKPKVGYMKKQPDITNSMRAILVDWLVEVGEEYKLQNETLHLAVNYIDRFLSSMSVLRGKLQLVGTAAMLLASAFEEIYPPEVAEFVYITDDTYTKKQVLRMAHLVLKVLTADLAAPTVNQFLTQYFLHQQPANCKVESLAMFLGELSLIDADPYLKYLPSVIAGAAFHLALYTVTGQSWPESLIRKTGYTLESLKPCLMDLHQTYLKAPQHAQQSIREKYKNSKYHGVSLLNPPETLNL
Substitution,normalised enrichment score
ASKSRCQLFKDDP [V6C],2.44
ASKSRVQLFGDDP [K10G],1.5
ASKSRVQLFKDVP [D12V],3.2
ASKSRLQLFKDDP [V6L],1.64
ASKRRVQLFKDDP [S4R],1.35
ASKSRVQLFKGDP [D11G],1.86
ASKSRVFLFKDDP [Q7F],1.2
ASKSRVQLAKDDP [F9A],0.0749
ASKSRVQLMKDDP [F9M],0.276

# Block 2 — method: RNA Bind-n-Seq; form: RNA; matrix: in vitro; concentration: not given; relative to: input RNA pool; reading: higher = stronger binding
# Target: RING finger protein unkempt homolog, zinc fingers 1-6, GST-SBP tag (UNK, Homo sapiens, UniProt Q9C0B0, residues 30-357)
# Chain of UniProt Q9C0B0 (30-357, looked up): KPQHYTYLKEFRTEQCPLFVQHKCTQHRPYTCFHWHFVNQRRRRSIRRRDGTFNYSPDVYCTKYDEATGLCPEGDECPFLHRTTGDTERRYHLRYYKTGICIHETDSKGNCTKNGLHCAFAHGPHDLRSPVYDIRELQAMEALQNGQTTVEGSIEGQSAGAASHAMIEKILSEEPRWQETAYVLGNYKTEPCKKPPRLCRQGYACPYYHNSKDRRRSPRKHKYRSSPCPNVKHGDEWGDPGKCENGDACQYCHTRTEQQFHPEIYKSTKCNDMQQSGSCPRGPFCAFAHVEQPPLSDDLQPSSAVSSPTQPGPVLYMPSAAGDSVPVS
# Setting: RNA with constant flanks, human-mouse chimeric sites, ends assumed
# Shared flanks, not repeated: GGGAGUUCUACAGUCCGACGAUC … CAACAGAGGAUUGAGCAUCA
Sequence,bound/input enrichment [ratio]
GCUGAAAAUGAAGAAGAGGCAGCUGAUGUCUGGUACAACCUGGGGCACAUAGCUGUGGGAAUCGGAGAUACAAACUUGGCCCAUCAGUGCUUCAGGCUGGCCCUGGUCAACAACAACCAC,0.156
GAAACAUUUAAAUUUAAAGAAGCUGUUGUUCUAGGAAGUACGGACUUUCUAGAAGAUGAUAUAGAGAAAAUUGUAGAAGAACUGGGGAAAGAGUAUAAAGGCAAUGCCUACCAUCUGAUG,1.44
GUAAUGGACGUCAACACUGCUUUACAAGAGGUGCUGAAGACUGCCCUCAUCCACGAUGGCCUAGCACGUGGCAUACGCGAAGCUGCCAAAGCCUUAGACAAGCGCCAAGCCCAUCUGUGU,0.14
ACCAUUUUCGCGGUUCAGGCUUUGUGUGUAGUUCACUCUAUGUAUUAAAUUAUUAUUCUGCUUAGCUUAUAAUAAGGAUAAUUGCAUGAUUUAAGUAUACUGAAUGUUACUCUGAAACUU,0.513
GAUCUCGGGCCCUCCCCAGGGGCCUCCUUUCGUAUAGUAACUGUCAGUGCAUCAGAUACUUUCAGCUGCAACUCCCUACUGGGUGGGGCACCCAUUUCAGGCAGAAGGUUUUGGUACCCU,0.256
AUAGAUGAAAUUGAUGUGGACCAGGAAGGAAUUGCAGAAAUGAUCCUGGAUGAAAAUGCUAUUGCUCAGGUCCCACGCCCUGGAACGUCUUUGAAGCUCCCUGGCACUAACCAAACAGGA,0.368
CACACACUCUUCUGCGGGACCCUCAUCUUGCAGGCCCGGGCCUAUGUGGGACCGCACGUGCUAGCAGUGGUGACCCGGACAGGGUUCUGCACGGCAAAAGGGGGCCUGGUGAGCUCCAUC,0.144

# Block 3 — method: protein-binding microarray; form: double-stranded DNA, one strand shown; matrix: in vitro; concentration: 250 nM; setting: 60-bp whole probe; with: salmon DNA 0.4 mg/ml; relative to: random background probes; reading: higher = stronger binding; shared flanks, not repeated: GCCTAGCAC … GTCTTGATTCGCTTGACGCTGCTG
# Target: Interferon regulatory factor 5, full length, phosphomimetic (IRF5, Homo sapiens, UniProt Q13568-2, residues 1-514, K96S/S451D/S453D/S456D/S462D)
Sequence,log fluorescence
GACGGTATCTACACTGGGGACGTGCTA,-0.0642 z-score
TCAATTTACATTTTAGTACTGTGCTAG,1.04 z-score
GTAGTAATGAATATAATACCGTGCTAG,0.418 z-score
TCATTTTCATGCTCTTATACTGTGCTA,2.13 z-score
TTGAACTTCGGCCTCTAGGTGTGCTAG,0.0332 z-score
TCAGTTCCTTATTTAAGACTGTGCTAG,0.238 z-score
TTAGGTTTCGGTTCAGGTTAGTGCTAG,10.7 z-score
GACGGTATCAGACTGGAGACGTGCTAG,-0.0981 z-score
TTAGATTTCATTTTCGATTAGTGCTAG,8.75 z-score
TTTTTCTCCTATTTAAGACAGTGCTAG,2.1 z-score
TTAGGTATCGGGACTGAGTTAGTGCTA,1.7 z-score
TTCGGTATCGGACTGGGTTAGTGCTAG,2.44 z-score
ATAACTTTTTTTTTTCCCTGGTGCTAG,0.785 z-score
GCCGAACTGAGTCTCGAGACGTGCTAG,-0.398 z-score
TTGGATATCGGGTTTCGATTAGTGCTA,7.22 z-score
TTAGATTTCGGGTATCGACTAGTGCTA,6.56 z-score
CTTGTGCTCCTTTTAATTTTGTGCTAG,0.22 z-score
GGCCTCTCTGTTTTCCTGTTGTGCTAG,0.163 z-score
TTCATTTTGTTCATCATTGCGTGCTAG,1.16 z-score

# Block 4 — method: RNA Bind-n-Seq; form: RNA; matrix: in vitro; concentration: 200 nM; setting: whole 134-nt RNA, ends assumed; with: 150 mM LiCl; relative to: input library; reading: higher = stronger binding; all molecules: 7-deaza-guanosine replaces G
# Target: Ras GTPase-activating protein-binding protein 1, full length (G3BP1, Homo sapiens, UniProt Q13283)
# Chain of UniProt Q13283 (whole entry, looked up): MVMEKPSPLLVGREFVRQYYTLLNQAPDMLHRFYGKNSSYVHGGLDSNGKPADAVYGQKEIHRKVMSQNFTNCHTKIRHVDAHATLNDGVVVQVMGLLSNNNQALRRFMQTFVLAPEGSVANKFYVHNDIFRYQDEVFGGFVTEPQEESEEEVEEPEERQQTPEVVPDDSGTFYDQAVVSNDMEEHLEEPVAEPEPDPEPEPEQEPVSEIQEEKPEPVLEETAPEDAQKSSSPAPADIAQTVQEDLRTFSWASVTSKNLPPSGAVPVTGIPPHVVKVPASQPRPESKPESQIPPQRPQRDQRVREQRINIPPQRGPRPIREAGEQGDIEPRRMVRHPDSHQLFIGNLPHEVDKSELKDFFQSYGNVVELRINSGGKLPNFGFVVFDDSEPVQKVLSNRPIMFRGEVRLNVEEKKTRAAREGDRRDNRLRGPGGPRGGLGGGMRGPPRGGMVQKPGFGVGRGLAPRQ
# Shared flanks, not repeated: GGGAGUUCUACAGUCCGACGAUC … UGGAAUUCUCGGGUGUCAAGG
Sequence,log2 enrichment
UGGUGGACAGAAGGCACUGCAGCCUGAAAUGGCAGAGUCUGGUGCUGACGAUCCGCGAGAAGAUCAAUGCUGCCAUCCAGGACAUGCCAG,-1.43
AGUCCUGUGCUACACAUCGUAUGUACCGAAUCGGGGAAAAAAAGGGGUGGGGAGGGGAAAGUAUUAUGUUACGCCGUUCGGAUCUGCACU,0.126
GUCCUGUGCUACACAUCGUAUGUACCGAAUCGGGUUUUUGGGUUUUUGGGGUUUUUGGAAAGUAUUAUGUUACGCCGUUCGGAUCUGCAC,-0.0617
AGUCCUGUGCUACACAUCGUAUGUACCGAAUCGGGAAAAAGGAAAAAGGGAAAAAGGGAAAGUAUUAUGUUACGCCGUUCGGAUCUGCAC,-0.662
GCAGGAAGUAAAAACAAAUGGAAAUGCUUCGGAUAGUGGCAGGGGUGGGGGUUGCUAAGGAAAGGGCGGGAUGGGAGUGGGUAAAGAGUU,0.221
CCCUGUGGGCCUUGCUCAGAGCGGAGAAAGCAUUUGUUUGUACAAGAUCCGCAGACGUGUAAAUGUUCCUGCAAAAACACAGACUCGCGU,-0.956
UAACUUUAGAGGAGGAUCUGAUGGAUAUGGCAGUGGACGUGGAUUUGGGGAUGGCUAUAAUGGGUAUGGAGGAGGACCGGGAGGUGGCAA,0.171
GUCCUGUGCUACACAUCGUAUGUACCGAAUCGGGAAAAAAAGGGUUUUUGGGAAAGGGAAAGUAUUAUGUUACGCCGUUCGGAUCUGCAC,-1.48
CCUCAAGUCCUGUGCUACACAUCGUAUGUACCGAAUCGGGAGGGAGGGGAGGGAAAGUAUUAUGUUACGCCGUUCGGAUCUGCACUUCCA,-0.0289
CACAGACAACACGCACCCACACAGACACAGAGGGAAUGGGUUGGGAUGGGGACAGGGUGCACAGCAGGGCGGGGUAGGACCCCAGCCCCU,-1.56
CUGAAGAGUCUGAGGAUGCCCAAUCACAGAGCCAAGCAGAUGAAGAGGAGGAAGAUGAUGAUUUUGGGGUGGAGUACUUGCUUGCCAGGG,-1.06

# Block 5 — method: universal PBM; form: double-stranded DNA, one strand shown; matrix: in vitro; concentration: not given; reading: higher = stronger binding
# Target: Sal-like protein 4, full length isoform B (SALL4, Homo sapiens, UniProt Q9UJQ4-2, residues 1-616)
# Setting: 8-mer, flanks averaged, mean of replicates
Sequence,E-score
CTAATTGC,-0.0216
CGACTCGC,-0.147
GGCTGCCC,-0.339
AAATCTCC,-0.186
CGCTTCAG,-0.0523
AGCCGATA,0.00252
ATAACTGC,0.308
AGGGCAAG,-0.0835
GATTCAAC,-0.212
CAGGCGTC,-0.274
AGCCAATA,0.165
GGGCTGTA,-0.203
AACACTAT,0.338
CCGGAACA,-0.0791
ATTCGTAA,0.254
AGGCTTCG,-0.199
GACAAAAC,0.0493
GACCCATA,0.144

# Block 6 — method: protein binding microarray; form: double-stranded DNA, one strand shown; matrix: in vitro; concentration: not given; relative to: not given; reading: higher = stronger binding
# Target: Histone acetyltransferase KAT6A, winged helix 2, GST fusion (KAT6A, Homo sapiens, UniProt Q92794, residues 85-181)
# Setting: 8-mer, flanks averaged, mean of 2 arrays, mostly near background
# Target sequence (chain): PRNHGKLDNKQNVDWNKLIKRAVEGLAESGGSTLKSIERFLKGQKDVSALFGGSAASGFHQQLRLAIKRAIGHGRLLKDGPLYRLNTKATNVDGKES
Sequence,E-score
CAGGGACC,0.0178
CGCTGATC,0.0688
ATTCATTG,0.00867
TCTGCAAA,0.0419
CGTCGTCA,-0.0354
AGGGGCTG,0.0474
TGTCAAAA,0.0308
AGAGTCCC,-0.175
TCCAGAGA,0.1
CTGCCACA,0.0131
CGTTGCAG,-0.163
AGTTTAGC,0.0628
CAGGGTGG,0.0264
AGACGTTC,-0.181
TTCTTAAA,-0.0214
GACCGTCC,0.056
ACTCCGAC,-0.00099
CAGCGAGG,0.00564
ACTTAGGC,-0.0231
GACTAAGA,0.157

# Some of these lines once more (block 6):
Sequence,E-score
AGTTTAGC,0.0628
CAGGGTGG,0.0264
AGACGTTC,-0.181
TTCTTAAA,-0.0214
GACCGTCC,0.056
ACTCCGAC,-0.00099
CAGCGAGG,0.00564
ACTTAGGC,-0.0231
